Published values collected from several papers.
Parts stem from different laboratories: compare values within a part only. Substitutions count along the parent as printed.

Block 1
Target: Histone acetyltransferase KAT6A, winged helix 1, GST fusion (KAT6A, Homo sapiens, UniProt Q92794, residues 1-85)
Method: protein binding microarray
Molecule type: double-stranded DNA, one strand shown
Medium: in vitro
Concentration: not given
Setting: 8-mer, flanks averaged, mean of 2 arrays, mostly near background
Reference: not given
Reading: higher = stronger binding
Construct (chain): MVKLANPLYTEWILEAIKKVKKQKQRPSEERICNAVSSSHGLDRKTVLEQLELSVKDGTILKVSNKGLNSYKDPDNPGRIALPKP
| Strand | E-score |
| --- | --- |
| CAAGGAAG | -0.151 |
| AAAATGGC | 0.0653 |
| GTGAGACA | -0.101 |
| CCGCAAAA | 0.161 |
| GAAACAAA | -0.224 |
| GACGAGCC | 0.0498 |
| ATAATTCA | -0.0884 |
| GAACCCAC | -0.0603 |
| TAACCGGA | 0.172 |
| TAATGAAA | -0.152 |
| CCATAAAC | -0.112 |
| CAGGAACG | 0.0534 |
| GAAGTCAA | -0.214 |
| CGGAGACG | 0.294 |
| AAGAGACC | -0.0909 |
| GACCATAC | 0.0184 |
| AAAGGCAG | -0.124 |
| AAATTGAC | -0.115 |
| AGCAGGTC | 0.0137 |
| GGGAGATA | -0.0136 |
| AATACTAC | -0.17 |
| AATCACAT | -0.0864 |
| GGAGTAGA | 0.0193 |
| GTAATAAA | 0.0614 |
| CCCAGTTA | -0.144 |

Block 2
Target: FOXO3, forkhead domain (mouse, UniProt Q9WVH4, residues 31-263)
UniProt Q9WVH4, sequence (31-263, looked up): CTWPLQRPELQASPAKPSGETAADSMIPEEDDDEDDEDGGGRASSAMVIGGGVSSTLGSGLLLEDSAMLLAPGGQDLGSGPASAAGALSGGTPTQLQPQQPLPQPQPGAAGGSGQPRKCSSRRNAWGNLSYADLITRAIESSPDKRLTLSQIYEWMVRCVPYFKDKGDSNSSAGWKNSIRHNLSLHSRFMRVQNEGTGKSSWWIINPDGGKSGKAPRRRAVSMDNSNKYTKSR
Method: protein-binding microarray
Molecule type: hairpin DNA
Medium: in vitro
Concentration: not given
Setting: whole hairpin DNA, median over replicate spots
Reference: not given
Reading: higher = stronger binding
All sequences stand within: GAGGCCA … TGGCCTCACACTC
| Strand | median fluorescence [a.u.] |
| --- | --- |
| TGCGACCAACGCCTCCTGGCGTTGGTCGCA | 4940 |
| TGCGACCAACGCCTCCTGGCGTTGGTCGCA (5mC at 10) | 4740 |
| TGTAACCCACGCCTCCTGGCGTGGGTTACA | 4230 |
| TGTACGCAACGCCTCCTGGCGTTGCGTACA (5mC at 12 32) | 4650 |
| TGTAAACACGGCCTCCTGGCCGTGTTTACA | 4860 |
| TGTCGACAACGCCTCCTGGCGTTGTCGACA (5mC at 11) | 4360 |
| TGTCACCAACGCCTCCTGGCGTTGGTGACA (5mC at 11) | 4370 |
| TGTAAACGACGCCTCCTGGCGTCGTTTACA (5mC at 30) | 4760 |
| TGTAACCAAGGCCTCCTGGCCTTGGTTACA | 3620 |
| GGTAAACAACGCCTCCTGGCGTTGTTTACC (5mC at 37) | 5370 |
| AGTAACCAACGCCTCCTGGCGTTGGTTACT | 4100 |
| TGTAAACACGGCCTCCTGGCCGTGTTTACA (5mC at 28) | 4790 |
| TGCAAACGACGCCTCCTGGCGTCGTTTGCA (5mC at 30) | 4750 |
| TGTAAACCACGCCTCCTGGCGTGGTTTACA | 4220 |
| TCGAAACAACGCCTCCTGGCGTTGTTTCGA (5mC at 9) | 4170 |
| TGCAAACAACGCCTCCTGGCGTTGTTTGCA | 5150 |
| TGCAAACAACGCCTCCTGGCGTTGTTTGCA (5mC at 14) | 4980 |
| TGTAAACAAGGCCTCCTGGCCTTGTTTACA | 4570 |

Block 3
Target: CCNE1, cyclin fold, Cln2 fusion (human)
Method: yeast growth competition, sequencing
Medium: yeast
Setting: strong parent motif
Reference: not given
Reading: higher = stronger binding
Starting sequence: RBL1 docking peptide (human); GSAKRRLFGEDPP; partner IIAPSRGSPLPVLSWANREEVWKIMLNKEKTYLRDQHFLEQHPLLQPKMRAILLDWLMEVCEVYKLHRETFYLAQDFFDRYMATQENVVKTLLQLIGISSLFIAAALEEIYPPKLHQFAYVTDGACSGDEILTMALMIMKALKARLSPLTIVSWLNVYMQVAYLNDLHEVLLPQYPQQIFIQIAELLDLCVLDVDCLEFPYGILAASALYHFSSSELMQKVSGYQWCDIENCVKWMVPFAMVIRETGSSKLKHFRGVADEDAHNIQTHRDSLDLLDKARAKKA
| Change | normalised enrichment score |
| --- | --- |
| GSAKPRLFGEDPP [R5P] | 0.446 |
| GSAKKRLFGEDPP [R5K] | 3.15 |
| GSAKRRLFHEDPP [G9H] | 7.02 |
| GSAKRRLFGEDTP [P12T] | 6.72 |
| GSAKRRLFGEDPL [P13L] | 6.72 |
| GSAKRRQFGEDPP [L7Q] | 0.77 |
| GSNKRRLFGEDPP [A3N] | -0.156 |
| GSAKRRLFGEKPP [D11K] | 4.93 |
| PSAKRRLFGEDPP [G1P] | 6.8 |
| GSRKRRLFGEDPP [A3R] | -0.14 |
| GSAKRRLFGEDPF [P13F] | 5.55 |
| GSFKRRLFGEDPP [A3F] | 5.72 |
| ESAKRRLFGEDPP [G1E] | 6.35 |
| GSAKWRLFGEDPP [R5W] | -0.296 |
| LSAKRRLFGEDPP [G1L] | 7.7 |
| GSAKRRLFSEDPP [G9S] | 7.2 |
| GSAKRCLFGEDPP [R6C] | 2.95 |
| GSAKRRLCGEDPP [F8C] | 0.0184 |
| GSPKRRLFGEDPP [A3P] | 1.82 |
| GSIKRRLFGEDPP [A3I] | 2.29 |
| GTAKRRLFGEDPP [S2T] | 6.06 |
| RSAKRRLFGEDPP [G1R] | 6.91 |
| GSAKRRLFGVDPP [E10V] | 4.3 |
| GSAKRRNFGEDPP [L7N] | 0.818 |
| KSAKRRLFGEDPP [G1K] | 6.14 |

Block 4
Target: ABI1, truncated, D143A, DHFR fusion (Arabidopsis thaliana)
Method: DHFR PCA, deep sequencing
Medium: yeast
Setting: methotrexate growth selection, single substitutions
Together with: (+)-ABA 0.11 µM
Reference: wild-type fitted maximum
Reading: higher = stronger binding
Starting sequence: PYL1, truncated, DHFR fusion (Arabidopsis thaliana); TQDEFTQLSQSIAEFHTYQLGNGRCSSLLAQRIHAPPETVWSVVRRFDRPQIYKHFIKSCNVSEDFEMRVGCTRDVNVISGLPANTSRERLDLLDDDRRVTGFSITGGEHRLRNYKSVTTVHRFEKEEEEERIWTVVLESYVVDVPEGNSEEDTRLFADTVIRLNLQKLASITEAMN; partner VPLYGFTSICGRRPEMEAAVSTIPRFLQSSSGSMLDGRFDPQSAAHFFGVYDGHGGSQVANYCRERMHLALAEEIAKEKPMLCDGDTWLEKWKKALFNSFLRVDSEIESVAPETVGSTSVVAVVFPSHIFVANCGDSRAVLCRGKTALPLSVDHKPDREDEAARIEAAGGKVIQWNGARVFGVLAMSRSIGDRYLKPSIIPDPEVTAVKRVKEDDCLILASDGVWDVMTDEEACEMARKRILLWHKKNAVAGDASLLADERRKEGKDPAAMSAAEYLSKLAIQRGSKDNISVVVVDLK
| Change | relative binding score [%] |
| --- | --- |
| K168A | 4.9 |
| L169Q | 2.71 |
| R88K | 43.8 |
| R99K | 43.4 |
| Q167F | -3.27 |
| E129F | 14 |
| A175K | 38 |
| T1I | 38.7 |
| D97V | 29.8 |
| P36R | 14.3 |
| E38M | 1.56 |
| E4N | 10.9 |
| E4L | 33.9 |
| Q2F | 70.3 |
| E128Q | 21.7 |
| R88G | -1.32 |
| R74F | -4.75 |
| P37A | 26.4 |
| T119C | 2.3 |
| N85W | 52.7 |
| D153L | -0.135 |

A few entries again (block 4):
| Change | relative binding score [%] |
| --- | --- |
| T1I | 38.7 |
| R74F | -4.75 |
| E38M | 1.56 |
| N85W | 52.7 |
| Q2F | 70.3 |
| R99K | 43.4 |
| R88K | 43.8 |
| E4N | 10.9 |
| P37A | 26.4 |
| D153L | -0.135 |
